Published values pooled from the literature.
Numbered parts are unrelated; each lists some results of a single study. Changes are numbered by the printed parent chain.

Block 1 — method: RNA Bind-n-Seq; form: RNA; matrix: in vitro; tested at: 365 nM; reference: no-protein control; reading: higher = stronger binding; measurement: RBNS enrichment (R)
Target: RNA binding protein fox-1 homolog 2, RRM domain, GST-SBP tag (RBFOX2, Homo sapiens, UniProt O43251-10, residues 100-194)
Notes: natural RNA segment, single round, ends assumed
Constant ends, left off below: GGGAGUUCUACAGUCCGACGAUC … UGGAAUUCUCGGGUGCCAA
Construct (chain): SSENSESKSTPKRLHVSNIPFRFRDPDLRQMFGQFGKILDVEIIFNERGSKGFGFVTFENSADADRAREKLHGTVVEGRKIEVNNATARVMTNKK
CCUUUGCUGAAAAGUGAGCUCAGAUCCAGCACCAUGUUCCUCCUGACCCAUCCUGUCUAUCUUCUCAGUUGAGUUUUUAAUCUCACUUUGGGUUUCCUUGUGAAGUUGGA: 0.2
CUGUUGGCUCAUUCUAUUUUGACUAAUGUUACAAAGUACUGAAAAAACUGUAGAAUAGAUAUUUUUAAGGCUAUAUGUAGUGUAUGUGUCUUUUAAUAGAUAUAGGCAUC: 0.403
CUUCCACAUUGCAUGUUCACUUUAGUAUUUGCAAUUUGAUAUAUUUCAUGGUGGCAAAAUAUUAGCUCUGUUUUGGGACAUUUUAAAAUAGAACUAUCCUUGUUCGAUAG: 4.04
UACAUAAUCCGACCUCAUAGCAGCAUUACAUUCUUUGCCGUGAUAAACAUUCCACUCCUGCUUUCCUAAGGAUGAAACAGUGAUAAUGUGAACUCAAAUGAGGUUUCCUG: 0.393
CAGCCGUCAGGCCCGCUUCGUCGUCAUCUCUAUCUCCCUGCUCCCUGGCCCUGAGGGUUUGGAAUCUGACCGGGUGAAGGCACCACCGGCGAGCUUUUGAAAGCAACAGG: 0.317
UUGUAGGCUGUUCCCUUUGCCUUAAACCUGAAGAUGUCUCCUCAAGCCUGUGGGCAGCAUGCCCAGAUUCCCAGACCUUAAGACACUGUGAGAGUUGUCUCUGUUGGUCC: 1.13

Block 2 — method: DHFR PCA, deep sequencing; matrix: yeast; together with: (+)-ABA 0.11 µM; reference: wild-type fitted maximum; reading: higher = stronger binding; measurement: relative binding score
Target: ABI1, truncated, D143A, DHFR fusion (Arabidopsis thaliana)
Notes: methotrexate growth selection, single substitutions
Starting sequence: PYL1, truncated, DHFR fusion (Arabidopsis thaliana); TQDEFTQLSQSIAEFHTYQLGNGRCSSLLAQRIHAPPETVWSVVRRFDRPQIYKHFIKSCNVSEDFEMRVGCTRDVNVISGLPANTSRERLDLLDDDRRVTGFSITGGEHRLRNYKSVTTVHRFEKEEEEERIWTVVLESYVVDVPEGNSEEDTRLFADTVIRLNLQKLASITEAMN
E152G: 2.79%
P50V: 27.6%
I133A: 50.2%
Y18T: -0.367%
S42A: 36.5%
I33N: -2.7%
H122A: -6.73%
K126M: 42.8%
L20N: 30.4%
D3C: 15.4%
T154C: -3.93%
C25I: 52.3%
F124E: 9.17%
N85G: 29.9%
T1M: 35%

Block 3 — target: UBE2V2 UBC core domain (UniProt Q15819); method: yeast two-hybrid; matrix: yeast; notes: mostly zero background; reference: not given; reading: higher = stronger interaction; measurement: lacZ reporter activity
B1: RNF149 RING domain (UniProt Q8NC42); chain EKGIDVDAENCAVCIENFKVKDIIRILPCKHIFHRICIDPWLLDHRTCPMCKLDVIKALGYW
B2: RNF112 RING domain (UniProt Q9ULX5); chain QPMAPRELPTCSICLERLRDPISLDCGHDFCIRCFSTHRLPGCEPPCCPECRKICKQKRGLR
B3: TRIM35 RING domain (UniProt Q9UPQ4); chain PSRSFKEELLCAVCYDPFRDAVTLRCGHNFCRGCVSRCWEVQVSPTCPVCKDRASPADLRT
B4: PEX2 RING domain (UniProt P28328); chain DNTLATSGKECALCGEWPTMPHTIGCEHIFCYFCAKSSFLFDVYFTCPKCGTEVHSLQPLK
Residues (chain): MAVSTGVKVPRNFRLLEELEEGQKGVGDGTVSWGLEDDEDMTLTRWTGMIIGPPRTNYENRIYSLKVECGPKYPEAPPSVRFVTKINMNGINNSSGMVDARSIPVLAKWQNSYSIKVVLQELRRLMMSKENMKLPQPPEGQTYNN
LKQVSIRENCCSLCCDEVADTQLKPCGHSDLCMDCALQLETCPLCRKEIVSRIRQI (RSPRY1 RING domain (UniProt Q96DX4)): 0
B1 (RNF149 RING domain): 0
SYEDKSNDFVCPICFDMIEEAYMTKCGHSFCYKCIHQSLEDNNRCPKCNYVVDNIDHLY (COP1 RING domain (UniProt Q8NHY2)): 0
B2 (RNF112 RING domain): 0
B3 (TRIM35 RING domain): 0
B4 (PEX2 RING domain): 0
QLQDEEDDSLCRICMDAVIDCVLLECGHMVTCTKCGKRMSECPICRQYVVRAVHVF (RNF34 RING domain (UniProt Q969K3)): 0

Block 4 — method: RNA Bind-n-Seq; form: RNA; matrix: in vitro; tested at: 15 pmol; notes: 4-mer, random 30-nt RNA, single round; together with: DMSO vehicle, 2 mM AMP-PNP; reference: input library; reading: higher = stronger binding; measurement: 4-mer enrichment
Target: Eukaryotic initiation factor 4A-I (EIF4A1, Homo sapiens, UniProt P60842, residues 1-406, full length assumed)
UniProt P60842, sequence (whole entry, looked up): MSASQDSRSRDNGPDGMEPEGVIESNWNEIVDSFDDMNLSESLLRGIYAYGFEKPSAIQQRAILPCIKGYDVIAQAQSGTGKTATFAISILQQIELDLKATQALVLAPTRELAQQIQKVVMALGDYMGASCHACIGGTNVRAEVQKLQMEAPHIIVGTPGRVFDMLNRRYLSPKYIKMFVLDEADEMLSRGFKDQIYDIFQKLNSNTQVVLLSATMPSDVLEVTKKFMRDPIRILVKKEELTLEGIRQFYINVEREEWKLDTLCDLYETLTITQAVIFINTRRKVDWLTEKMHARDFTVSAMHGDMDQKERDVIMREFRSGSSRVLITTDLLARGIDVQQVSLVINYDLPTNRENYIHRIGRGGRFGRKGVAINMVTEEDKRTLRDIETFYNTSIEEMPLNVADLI
CAGA: 1.29 fold
AACC: 1.91 fold
CGAU: 0.985 fold
CGUC: 1.37 fold
CCUA: 0.894 fold
AGGC: 1.09 fold
AAUG: 1.05 fold
GCGU: 0.98 fold
CGUG: 1.03 fold
AAAC: 1.81 fold
AACG: 1.3 fold
AUCU: 0.788 fold
AAUA: 1.15 fold
AGGA: 1.38 fold
UUCG: 0.699 fold
CAUG: 0.811 fold
CUCC: 1.47 fold
UGUA: 0.583 fold
GGCC: 1.51 fold
GCUU: 1.09 fold

Block 5 — method: protein binding microarray; form: double-stranded DNA, one strand shown; matrix: in vitro; tested at: not given; reference: not given; reading: higher = stronger binding; measurement: E-score
Target: Histone acetyltransferase KAT6A, both winged helices, GST fusion (KAT6A, Homo sapiens, UniProt Q92794, residues 1-181)
Notes: 8-mer, flanks averaged, mean of 2 arrays, mostly near background
Residues (chain): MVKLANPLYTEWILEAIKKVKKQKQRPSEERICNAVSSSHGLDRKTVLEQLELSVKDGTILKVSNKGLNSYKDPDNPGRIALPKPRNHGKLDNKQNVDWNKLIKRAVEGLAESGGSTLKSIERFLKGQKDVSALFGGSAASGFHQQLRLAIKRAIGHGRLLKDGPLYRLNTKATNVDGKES
CCATAAGC: -0.0609
ATGAGGTC: -0.163
ATTATTTG: 0.0233
ACCAACTA: -0.112
AGGATTGG: -0.161
TCGCTCAA: 0.0726
AATGGCCG: 0.215
CACCGCTG: 0.165
CCATGCAG: -0.1
ACGTATTG: 0.119
CCCACGAC: -0.224
CGCCTTCC: 0.143
GGGGGCAA: -0.145

Block 6 — target: CCNB1, cyclin fold, Cln2 fusion (human); method: yeast growth competition, sequencing; matrix: yeast; notes: weak parent motif; reference: not given; reading: higher = stronger binding; measurement: normalised enrichment score
Starting sequence: EXO1 docking peptide (human); KPECGRVQRAIFQ
I11A: 0.102
Q8A: 0.178
G5A: -0.324
F12A: 0.265
V7A: 0.44
E3A: 0.374
